Experimental data collected from several papers.
Numbered parts are unrelated; each lists some results of a single study. Positions count from the first letter of the parent shown.

Series 1
Target: ATF5, bZIP domain (human)
Technique: DHFR protein complementation
Sample: yeast
Setting: single substitutions, most at no-binding floor
Relative to: wild-type JUN-FOS pair
Reading: higher = stronger binding
Endpoint: binding fitness
Parent: JUN, bZIP domain (human); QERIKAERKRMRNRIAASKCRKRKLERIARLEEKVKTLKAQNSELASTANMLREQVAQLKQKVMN; partner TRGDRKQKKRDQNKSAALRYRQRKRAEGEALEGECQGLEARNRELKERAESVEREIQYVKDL
K39H: -1.46 natural log
L31E: -1.48 natural log
L38T: -1.4 natural log
S43R: -1.47 natural log
E54W: -1.48 natural log
K34C: -1.33 natural log
I28D: -1.51 natural log
A57S: -1.57 natural log
E33T: -1.54 natural log
L31Q: -1.41 natural log
K34N: -1.59 natural log
V35M: -1.59 natural log
E33P: -1.48 natural log
A40C: -1.29 natural log
T48A: -1.35 natural log
I28R: -1.38 natural log
K36N: -1.47 natural log
V35L: -1.51 natural log
N42L: -1.49 natural log
L31H: -1.35 natural log
E54F: -1.41 natural log
L38D: -1.53 natural log
N42Y: -1.52 natural log
K36R: -1.32 natural log
K39I: -1.33 natural log

Series 2
Target: Sal-like protein 4, full length isoform B (SALL4, Homo sapiens, UniProt Q9UJQ4-2, residues 1-616)
Technique: universal PBM
Molecule type: double-stranded DNA, one strand shown
Sample: in vitro
Concentration: not given
Setting: 8-mer, flanks averaged, mean of replicates
Reading: higher = stronger binding
Endpoint: E-score
Target sequence (chain): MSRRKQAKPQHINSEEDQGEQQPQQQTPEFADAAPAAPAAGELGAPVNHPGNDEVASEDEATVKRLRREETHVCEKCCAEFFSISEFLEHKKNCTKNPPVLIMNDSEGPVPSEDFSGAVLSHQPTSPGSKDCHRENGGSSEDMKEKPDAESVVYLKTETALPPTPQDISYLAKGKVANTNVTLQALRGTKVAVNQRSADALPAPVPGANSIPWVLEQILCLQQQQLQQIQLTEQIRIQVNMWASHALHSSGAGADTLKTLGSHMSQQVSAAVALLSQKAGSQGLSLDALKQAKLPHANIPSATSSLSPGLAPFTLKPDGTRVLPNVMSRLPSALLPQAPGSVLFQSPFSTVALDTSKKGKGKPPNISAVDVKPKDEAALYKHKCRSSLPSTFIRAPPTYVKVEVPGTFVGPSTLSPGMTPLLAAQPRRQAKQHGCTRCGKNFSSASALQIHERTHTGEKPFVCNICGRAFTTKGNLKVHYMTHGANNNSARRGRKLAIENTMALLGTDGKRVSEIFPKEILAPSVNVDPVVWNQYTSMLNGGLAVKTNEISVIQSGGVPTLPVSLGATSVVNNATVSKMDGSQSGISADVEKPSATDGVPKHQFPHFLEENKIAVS
ACAGATCC: 0.0537
AATCATAA: 0.441
GGCGCACA: -0.2
CTACGCTA: 0.0247
CTAACGAA: 0.0785
GCCCGTGA: -0.271
AGGAGGCA: -0.283
CCAAGGAA: -0.00474
CCTAGGAA: -0.0443
ATACGAGG: -0.0485
ACGTTGGG: -0.257
CCTGAGTC: -0.279
AAGCAAAA: 0.233
AAGCTGCG: -0.284
ACCTATTC: 0.0199
CCCGGTTA: -0.235

Series 3
Target: CCNE1, cyclin fold, Cln2 fusion (human)
Technique: yeast growth competition, sequencing
Sample: yeast
Setting: weak parent motif
Relative to: not given
Reading: higher = stronger binding
Endpoint: normalised enrichment score
Parent: SAMHD1 docking peptide (human); ASKSRVQLFKDDP
ASKSRVQLAKDDP [F9A]: -0.156
ASKSRVQLFKEDP [D11E]: 0.369
ASKSRVQLFKADP [D11A]: -0.00345
ASKSRVMLFKDDP [Q7M]: -0.18
ASYSRVQLFKDDP [K3Y]: 0.106
ASKSRVQFFKDDP [L8F]: -0.0838
ASKSRFQLFKDDP [V6F]: 0.192
ASKSKVQLFKDDP [R5K]: 0.292
ASKSRVQLFKDIP [D12I]: 0.293
ASKSRVQLFKDKP [D12K]: 0.0246
ASKSRVDLFKDDP [Q7D]: -0.354
ASKSRVHLFKDDP [Q7H]: 0.162
ASASRVQLFKDDP [K3A]: 0.372
ASKSRCQLFKDDP [V6C]: 0.0141
ASKSRVQLCKDDP [F9C]: 0.0677
ASKSQVQLFKDDP [R5Q]: -0.119
ASTSRVQLFKDDP [K3T]: -0.112
ASKSRVSLFKDDP [Q7S]: -0.324
AYKSRVQLFKDDP [S2Y]: 0.331
ASSSRVQLFKDDP [K3S]: 0.139
ASKSRVQLFKDTP [D12T]: 0.158

Series 4
Target: Interferon regulatory factor 5, full length, phosphomimetic (IRF5, Homo sapiens, UniProt Q13568-2, residues 1-514, K96S/S451D/S453D/S456D/S462D)
Technique: protein-binding microarray
Molecule type: double-stranded DNA, one strand shown
Sample: in vitro
Concentration: 250 nM
Setting: 60-bp whole probe
Added: salmon DNA 0.4 mg/ml
Relative to: random background probes
Reading: higher = stronger binding
Endpoint: log fluorescence
Constant ends, left off below: GCCTAGCAC … GTCTTGATTCGCTTGACGCTGCTG
ATTGTTTTCAGTTTCACTGCGTGCTAG: 7.47 z-score
TTCTACTTCTCTTTTGGCTTGTGCTAG: 1.27 z-score
GACGGTTTCCTTCTCCTGTCGTGCTAG: 1.26 z-score
CTCTTTGTTTCACTTCCTGGTGTGCTA: 4.11 z-score
TTAGCTATCAGTATCGATTAGTGCTAG: 8.22 z-score
GACGATCTCAGACTTGAGACGTGCTAG: -0.277 z-score
TCAATGATTTTTTTCATACTGTGCTAG: 0.692 z-score
TTAGGTATCGGTCTCGGTTAGTGCTAG: 6.96 z-score
TCATTTTTCTGAACCATACTGTGCTAG: 0.969 z-score
CTAGATTTCAGACTGGATTAGTGCTAG: 0.122 z-score
TTAGGTATCGGTCTAGGTTAGTGCTAG: 7.65 z-score
GGCATTTTTTTTATCAATCAGTGCTAG: 0.5 z-score
GACGATCTCAGTTACGAGACGTGCTAG: 0.0608 z-score
TTAGAAATCGGGTTTCGATTAGTGCTA: 7.78 z-score
TCACCTTTGCCTCCAGGACTGTGCTAG: 0.0808 z-score
GCCGATTTCGGGTATCGAGACGTGCTA: 5.69 z-score
TCACCTTTCTGCCTCAGACTGTGCTAG: 1.67 z-score
GACGGACTGCTTTTCATGACGTGCTAG: 0.0539 z-score
TTAGGTTCCCTGTTCCTTTAGTGCTAG: -0.117 z-score

A few entries again (series 3):
ASKSRVQLCKDDP [F9C]: 0.0677
ASKSRVDLFKDDP [Q7D]: -0.354
ASKSRVQLFKEDP [D11E]: 0.369
ASKSQVQLFKDDP [R5Q]: -0.119
ASKSRFQLFKDDP [V6F]: 0.192
ASKSRVSLFKDDP [Q7S]: -0.324
ASKSRVHLFKDDP [Q7H]: 0.162
ASYSRVQLFKDDP [K3Y]: 0.106
ASASRVQLFKDDP [K3A]: 0.372
ASSSRVQLFKDDP [K3S]: 0.139
ASKSRVMLFKDDP [Q7M]: -0.18
ASKSRVQLFKDKP [D12K]: 0.0246
